Measured values from different studies.
Target: Serine/threonine-protein kinase Nek1 (NEK1, Homo sapiens, UniProt Q96PY6)

Structure (SMILES) | test | conditions | how to read | endpoint | value
COc1c(Cl)cccc1Nc1c(-c2ccncc2C#C[C@@]2(C)CCCN2C(=O)/C=C/CN(C)C)[nH]c2c1C(=O)NCC2 | binding, competition with immobilised ligand | 3 µM | – | remaining binding | 72%
COc1ccc(O)cc1-c1c[nH]c2ncc(-c3cncc(C(=O)N(C)C)c3)cc12 | binding, competition with immobilised ligand | 0.2 µM | – | inhibition | 5.59%
NC(=O)C[C@H]1CCc2sc3ncnc(O[C@H]4CC[C@H](N5CCOCC5)CC4)c3c21 | enzyme activity, inhibitor | 10 µM | – | inhibition | 11%
COc1cc(Nc2nccc(-c3cnn4nc(OC)ccc34)n2)cc(C(F)(F)F)c1 | binding, competition with immobilised ligand | 1 µM | – | remaining binding | 100%
CNC1C[S+]2CC[S+]3CC[S+](C1)[Ru-4]321([N]=C=S)[n]2c3ccc(OC)cc3c3c4c(c5cc(F)c[n+]1c5c32)C(=O)NC4=O (stereo not shown) | KinomeScan | 0.1 µM | relative to: untreated | remaining binding | 100%
C[C@H]1CN(C(=O)c2cn(-c3ccnc(N)n3)c3cc(C#CC4(O)CCCCC4)ccc23)CCN1 | enzyme activity, inhibitor, FRET | 1 µM | – | inhibition | 13%
Nc1ncc2c(n1)-c1c([nH]c3ccc(C4=CCOCC4)cc13)CCC2 | binding, competition with immobilised ligand | 1 µM | – | remaining binding | 100%
CC(C)=CC1OC(C)(C)C2C=C3C(=O)C(Cl)=CC(O)C3C3C(O)C4OC4C(=O)C132 (stereo not shown) | cell-free assay, competition with immobilised ligand | 10 µM | – | remaining binding | 89%
C=CC(=O)Nc1cccc(-c2cnc3[nH]cc(C(=O)NC(C)(C)C)c3n2)c1 | enzyme activity, inhibitor | 0.1 µM | – | inhibition | 29%
C=CC(=O)N1CCc2ccc(-n3c(=O)ccc4cnc5ccc(-c6cnn(C)c6)cc5c43)cc21 | KINOMEscan | 1 µM | relative to: DMSO control | remaining binding | 95%
Cc1cccc(O[C@H]2CCC[C@@H](C(C)CNCc3ccncc3)C2)c1 (relative stereo) | enzyme activity, inhibitor | 10 µM | – | inhibition | -8%
CN1CCN(Cc2ccc(-c3ccc(CO[C@H]4CCC[C@@H]4NC(=O)c4cc(-c5cnn(C)c5)cnc4N)cc3)cc2)CC1 | enzyme activity, inhibitor | 0.1 µM | – | inhibition | 6%
Cc1ccc(-c2c(/C=C(\C#N)C(=O)NC(C)C)n(CCCO)c3ncnc(N)c23)cc1 | cell-free assay, competition with immobilised ligand | 1 µM | – | remaining binding | 100%
COc1ccc(C(=O)/C=C/c2ccccc2-c2c[nH]c3ccc(C#N)cc23)c(O)c1 | enzyme activity, inhibitor | 20 µM | – | inhibition | -3%
Nc1ncc(-c2cc(-c3cnn(CC(F)(F)F)c3)ncc2F)nc1C(=O)NC1CNCC(F)C1 (stereo not shown) | enzyme activity | 1 µM | relative to: DMSO control | remaining activity | 78.8%
O=C(Cc1ccc(OCc2ccccc2)cc1)NC1(C(=O)O)CCN(C(=O)c2ccc(-c3cccc(Cl)c3)cc2)CC1 | enzyme activity, inhibitor | 10 µM | – | activity vs control | 116%

For quick reference, copied from above:
Structure (SMILES) | test | conditions | how to read | endpoint | value
COc1ccc(O)cc1-c1c[nH]c2ncc(-c3cncc(C(=O)N(C)C)c3)cc12 | binding, competition with immobilised ligand | 0.2 µM | – | inhibition | 5.59%
